# Measurements of several laboratories.
# A part holds a random share of what one study measured. “And” joins repeats or separate records; there may be more than shown.

# Set 1 — observed: enzyme activity; mode: inhibitor; concentration: 10 µM
# Target: Calcium/calmodulin-dependent protein kinase type II subunit alpha (CAMK2A, Homo sapiens, UniProt Q9UQM7)
# UniProt Q9UQM7, sequence (whole entry, looked up): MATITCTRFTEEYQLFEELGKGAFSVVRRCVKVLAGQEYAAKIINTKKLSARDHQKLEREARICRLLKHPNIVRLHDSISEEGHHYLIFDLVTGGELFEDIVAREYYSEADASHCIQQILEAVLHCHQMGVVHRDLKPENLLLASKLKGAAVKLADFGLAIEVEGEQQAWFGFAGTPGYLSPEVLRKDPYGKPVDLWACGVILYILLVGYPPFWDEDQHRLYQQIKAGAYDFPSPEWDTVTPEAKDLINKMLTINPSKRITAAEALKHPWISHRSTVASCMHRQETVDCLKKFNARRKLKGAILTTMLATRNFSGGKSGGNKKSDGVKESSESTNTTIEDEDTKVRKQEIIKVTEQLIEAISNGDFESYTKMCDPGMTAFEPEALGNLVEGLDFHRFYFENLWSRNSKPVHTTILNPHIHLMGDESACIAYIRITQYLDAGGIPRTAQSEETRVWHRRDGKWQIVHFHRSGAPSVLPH
SMILES,inhibition
O=C(O)CC[N+](=O)[O-],-43%
C=C1[C@H](OC(=O)c2ccccc2)C[C@H]2[C@@H](/C=C(\C)C(=O)[C@@]3(OC(C)=O)C[C@H](C)[C@H](OC(=O)c4ccccc4)[C@@H]3[C@H]1OC(C)=O)C2(C)C,11%
COC(=O)[C@@]12OC[C@]34[C@H]([C@@H](O)[C@@H]1O)[C@@]1(C)CC(=O)C(O)=C(C)[C@@H]1C[C@H]3OC(=O)[C@H](OC(=O)/C=C(\C)C(C)C)[C@@H]24,15%
O=c1[nH]c2ccccc2n1C1CCN(CCCC(c2ccc(F)cc2)c2ccc(F)cc2)CC1,13%
O=c1ccc2c(O)c3ccoc3cc2o1,20%
C=C[C@@]12CN(C)[C@H]3C[C@]14C(=Nc1ccccc14)[C@@H]1C[C@@H]2[C@@H]3CO1,-3%

# Set 2 — organism: Sarcocystis neurona; observed: parasite activity; concentration: 10 µM; time: 96 h
SMILES,activity class
CCN(C(C)=O)c1cccc(-c2ccnc3c(C#N)cnn23)c1,inactive
CC(NC(C)(C)C)C(=O)c1cccc(Cl)c1 (stereo not drawn),inactive
CC(C)N(CCC(C(N)=O)(c1ccccc1)c1ccccn1)C(C)C (stereo not drawn),inactive
c1ccc2c3c([nH]c2c1)CNCC3,inactive
C=C1C[C@@H]2[C@H](CC[C@]3(C)C(=O)CC[C@@H]23)[C@@]2(C)C=CC(=O)C=C12,inactive
CCCC(C)(COC(N)=O)COC(=O)NC(C)C (stereo not drawn),inactive

# Set 3 — species: human; sample: microsomes or S9; concentration: 2 µM; time: 0.5 h
Structure (SMILES),remaining compound [%]
CC(C)(C)c1cc(-n2c(=O)[nH]c3ccccc3c2=O)no1,95.5
Cn1ccn2ncc(C(=O)N[C@H]3COC[C@@H]3N3CCCCC3)c12,> 99.9
COc1cc(C(=O)Nc2c(C)cc(Cl)cc2C(=O)NC(C)C)n(-c2ncccc2Cl)n1,82.6

# Set 4 — cell line: mouse MPNST tumor cells; method: high-content nuclear imaging; refers to: cell number; concentration: 10 µM; time: 12 h; setting: mean of 2 replicates; relative to: plate mean; direction: higher = more cells
SMILES,nuclei count
"CN1CCC2(C)c3cc(O)ccc3N(C)C12 (single isomer, unassigned; (-))",-0.684 z-score
CC(NC(C)(C)C)C(=O)c1cccc(Cl)c1 (stereo not drawn),1.43 z-score and 1.21 z-score
CN1[C@@H]2CC[C@H]1C[C@@H](OC1c3ccccc3CCc3ccccc31)C2,-4.12 z-score
C[C@]12CC[C@H](O)C[C@H]1CC[C@@H]1[C@@H]2CC[C@]2(C)[C@@H](C3=CC(=O)OC3)CC[C@]12O,0.0285 z-score
C[C@]12Cc3c[nH]nc3C[C@@H]1CC[C@@H]1[C@@H]2CC[C@@]2(C)[C@H]1CC[C@]2(C)O,4.38 z-score

# Set 5 — observed: binding; method: radioligand binding; concentration: 10 µM
# Target: D(1B) dopamine receptor (DRD5, Homo sapiens, UniProt P21918)
# UniProt P21918, sequence (whole entry, looked up): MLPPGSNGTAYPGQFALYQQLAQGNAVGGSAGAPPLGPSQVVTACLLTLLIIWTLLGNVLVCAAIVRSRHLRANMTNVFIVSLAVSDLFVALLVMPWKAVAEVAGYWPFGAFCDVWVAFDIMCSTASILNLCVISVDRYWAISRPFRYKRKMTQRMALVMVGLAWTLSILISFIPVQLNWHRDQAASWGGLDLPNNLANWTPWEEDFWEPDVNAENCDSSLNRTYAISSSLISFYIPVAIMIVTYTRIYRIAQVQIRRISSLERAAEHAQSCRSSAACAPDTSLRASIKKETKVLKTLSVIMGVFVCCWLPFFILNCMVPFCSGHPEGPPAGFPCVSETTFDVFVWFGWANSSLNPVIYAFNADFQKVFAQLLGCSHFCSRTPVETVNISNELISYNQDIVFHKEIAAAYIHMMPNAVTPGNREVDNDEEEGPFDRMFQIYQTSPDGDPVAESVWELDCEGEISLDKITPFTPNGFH
Compound,inhibition [%]
CC1=C(C#N)[C@@H](c2ccc3[nH]nc(C)c3c2)C(C#N)=C(c2ccc(Cl)cc2)N1,58.1
Cc1nc(Cc2cccc(C(F)(F)F)c2)sc1-c1ccc(C(N)=O)nc1,13.8
COc1nc2ccc([C@@](O)(c3ccccc3)C3CCN(C(C)=O)CC3)cc2c(Cl)c1Cc1ccc(-n2cccn2)cc1,33.9
O[C@]1(C(F)(F)F)CCCC[C@H]1Nc1ccc(F)cc1,30.2
CCCOc1ccc([C@H]2[C@H](C(=O)O)[C@@H](c3ccc4c(c3)OCO4)CN2CC(=O)Nc2c(CC)cccc2CC)cc1,11
O=C(Nc1cnc(Oc2ccc(F)cc2)nc1)N1CCc2ncccc2[C@@H]1c1ccc(F)cc1,10.1
O=C(Nc1ccc(-n2nc(-c3cccnc3)cc2C(F)(F)F)cn1)c1ccc(-c2ccccc2)c(F)c1,-28.6
CNC(=O)c1cc(C(=O)NC2CC2)cn(Cc2ccccc2)c1=O,18.6
Cc1c[nH]c2nccc(Oc3c(F)cc(Nc4cc(Cl)nc(N)n4)cc3F)c12,21.9
COCCc1ccc(-c2c(C)nc3c(N4CCOCC4)ccnn23)cn1,25.3
Cc1c(NC(=O)c2cc(C(N)=O)nc3cc(F)ccc23)c(C(F)(F)F)nn1Cc1ccc(C(C)(C)C)cc1,2.96
COCc1nc2cnc3cc(-c4c(C)noc4C)c(OC[C@H]4CCNC4)cc3c2n1[C@H](C)c1ccccc1,31.7
Cc1nccc(COC(=O)N2C[C@@H]3[C@@H](CNC(=O)c4ccc5[nH]nnc5c4)[C@@H]3C2)n1,16.4
CC(C)(O)c1cncc(-c2nc3ccc(F)cc3n2C2CC2)c1,21
CC(=O)Nc1nc(CN2CCC[C@H](Cc3cc(C)nc(C)c3)C2)cs1,-30.4
CN([C@@H]1CCc2c(CC(=O)O)c3cc(S(C)(=O)=O)ccc3n2C1)S(=O)(=O)c1ccc(F)cc1,-6.04
Cc1nc(C2CCN(C(=O)c3ccc(OC(F)(F)F)cc3N)CC2)c2ncc(N3CCN(C)CC3)cc2n1,12.4
O=C([C@H]1C[C@H](O)CN1c1ccc(Cl)cc1)N1CC2COCC(C1)N2Cc1ccc(Cl)cc1,6.84
CS(=O)(=O)NCC[C@H](NC(=O)c1cncc2c1cnn2-c1ccc(F)cc1)c1ccnc(S(C)(=O)=O)c1,36
C[C@H](NC(=O)c1cnc2n1[C@](C)(Cc1ccc(C#N)cc1)C(=O)N2c1cc(Cl)c(F)c(Cl)c1)C(=O)NC1(c2ccccn2)CC1,14

# Other studies, line by line
SMILES,cell line,method,concentration,time,viability
CC(C)(C)c1cnc(CSc2cnc(NC(=O)C3CCN(CCCCCSc4cccc5c4CN(C4CCC(=O)NC4=O)C5=O)CC3)s2)o1 (stereo not drawn),HEK293T,trypan blue exclusion,100 nM,24 h,93% and 85.3% and 93.1%
C[C@]12CC[C@H]3[C@@H](CC[C@@]45O[C@@H]4C(O)=C(C#N)C[C@]35C)[C@@H]1CC[C@@H]2O,HaCaT,,100 µM,60 h,31.5%

# For quick reference, copied from above (set 1):
SMILES,inhibition
C=C1[C@H](OC(=O)c2ccccc2)C[C@H]2[C@@H](/C=C(\C)C(=O)[C@@]3(OC(C)=O)C[C@H](C)[C@H](OC(=O)c4ccccc4)[C@@H]3[C@H]1OC(C)=O)C2(C)C,11%
O=C(O)CC[N+](=O)[O-],-43%
C=C[C@@]12CN(C)[C@H]3C[C@]14C(=Nc1ccccc14)[C@@H]1C[C@@H]2[C@@H]3CO1,-3%
O=c1[nH]c2ccccc2n1C1CCN(CCCC(c2ccc(F)cc2)c2ccc(F)cc2)CC1,13%
